Results gathered from unrelated publications.
Lines come from different studies, so protocols differ. ± gives the spread as reported.

N[C@H](CCC(=O)N[C@H](CCC[C@H](N)C(=O)O)C(=O)O)C(=O)O
viability (HFF-1; 0.1 µg/mL): 87.1%

Cc1ccc(OCCc2cc(F)cc(F)c2)c(C(N)=O)c1
selectivity ratio (HepG2; 3 (unit not given); baseline: CC50 glucose over CC50 galactose): < 1

Cn1c(N)nc2c3cccnc3ccc21
IC10 (rat hepatoma cells; cytotoxicity; 24 h, freely dissolved concentration): > 335 µM

COC(=O)N[C@H](C(=O)N1CCC[C@H]1c1nc(-c2ccc(-c3ccc(-c4c[nH]c([C@@H]5CCCN5C(=O)[C@@H](NC(=O)OC)C(C)C)n4)cc3)cc2)c[nH]1)C(C)C
CC50 (African green monkey cells; 5 days): 19.7 µM

Nc1nc2c(ncn2[C@@H]2O[C@@H]3COP(=O)(O)O[C@H]4[C@@H](O)[C@H](n5cnc6c(N)ncnc65)O[C@@H]4COP(=O)(O)O[C@H]3[C@H]2O)c(=O)[nH]1
viability (HFF-1; 10 µg/mL): 89.5%

O=C(c1ccc(F)cc1)C1CCN(CCCn2c(=O)[nH]c3cc(Cl)ccc32)CC1
CC50 (African green monkey cells; 5 days): 32.4 µM

O=c1ccc2ccccc2o1
chance response (NHEK; cell cycle arrest; concentration not given, 6 h): 0.19%

CC(=O)N[C@@H](CCCCN)C(=O)N[C@@H](C)C(=O)N[C@@H](CC(C)C)C(=O)N[C@@H](CC(C)C)C(=O)N[C@@H](CCCCN)C(=O)N[C@@H](CC(C)C)C(=O)N[C@@H](CC(C)C)C(=O)N[C@@H](CCCCN)C(=O)N[C@@H](CCCCN)C(=O)N1CCC[C@H]1C(=O)N[C@@H](CC(C)C)C(=O)N[C@@H](CCCCN)C(=O)N[C@@H](CC(C)C)C(=O)N[C@@H](CC(C)C)C(=O)N[C@@H](CCCCN)C(N)=O
MHC10 (human red blood cells; haemolysis; 6 h, 37 °C, 5% haematocrit in PBS): > 160 µM

CC(C)C[C@H](NC(=O)CN)C(=O)N[C@@H](CCCCN)C(=O)N[C@@H](CCCCN)C(=O)N[C@@H](CC(C)C)C(=O)N[C@@H](CC(C)C)C(=O)N[C@@H](CC(C)C)C(=O)N[C@@H](CC(C)C)C(=O)N[C@@H](CC(C)C)C(=O)N[C@@H](CCCCN)C(=O)N[C@@H](CCCCN)C(=O)N[C@@H](CC(C)C)C(=O)NCC(=O)NCC(=O)NCC(=O)N[C@@H](Cc1ccccc1)C(=O)N[C@@H](CO)C(=O)N[C@@H](CC(C)C)C(=O)N[C@@H](C)C(=O)N1CCC[C@H]1C(=O)N[C@@H](Cc1ccc(O)cc1)C(=O)N[C@@H](C)C(=O)N1CCC[C@H]1C(=O)N[C@@H](C)C(=O)N1CCC[C@H]1C(=O)N[C@H](C(=O)N[C@@H](CC(N)=O)C(=O)O)C(C)C
lowest hemolytic concentration (human red blood cells; 1 h, 37 °C, 10% hemolysis): > 256 µg/mL

Cc1ccccc1CN1CCN(CCOC(c2ccccc2)c2ccccc2Cl)CC1 (stereo not drawn)
CC50 (African green monkey cells; 5 days): 15.3 µM

O=S(=O)(c1ccc(O)cc1)c1ccc(O)cc1
late apoptotic cells (HepG2 spheroids, dissociated; annexin V-FITC/PI flow cytometry; 0.1 µM, 24 h): 8.04 ± 3.02%

Cc1nc(Nc2ccc(F)cc2)nc(N2CCc3ccccc3C2C)c1C (stereo not drawn)
CC50 (African green monkey cells; 5 days): 11.5 µM

CC(=O)N[C@@H]1[C@@H](O[C@H](C)C(=O)N[C@@H](C)C(=O)N[C@H](CCC(=O)O)C(N)=O)[C@H](O)[C@@H](CO)O[C@H]1O
viability (HFF-1; 1 µg/mL): 87.1%

CC(=O)N[C@@H](CCCCN)C(=O)N[C@@H](CC(C)C)C(=O)N[C@@H](CC(C)C)C(=O)N[C@@H](CCCCN)C(=O)N[C@@H](CC(C)C)C(=O)N[C@@H](CC(C)C)C(=O)N[C@@H](CCCCN)C(=O)N[C@@H](CCCCN)C(=O)N1CCC[C@H]1C(=O)N[C@@H](CC(C)C)C(=O)N[C@@H](CCCCN)C(=O)N[C@@H](CC(C)C)C(=O)N[C@@H](CC(C)C)C(=O)N[C@@H](CCCCN)C(=O)N[C@@H](CCCCN)C(=O)N[C@@H](CC(C)C)C(N)=O
MHC10 (human red blood cells; haemolysis; 6 h, 37 °C, 5% haematocrit in PBS): > 160 µM

CCN(CC)CCNC(=O)c1cc(Cl)c(NC(=O)COc2ccc(Cl)cc2)cc1OC
CC50 (African green monkey cells; 5 days): 2.85 µM

Excerpt of the above:
Cc1nc(Nc2ccc(F)cc2)nc(N2CCc3ccccc3C2C)c1C (stereo not drawn)
CC50 (African green monkey cells; 5 days): 11.5 µM
